Assay results gathered from unrelated publications.
Parts stem from different laboratories: compare values within a part only. Positions count from the first letter of the parent shown.

Set 1 — technique: RNA Bind-n-Seq; form: RNA; matrix: in vitro; tested at: not given; notes: RNA with constant flanks, ends assumed; reference: input RNA pool; reading: higher = stronger binding
Target: RING finger protein unkempt homolog, zinc fingers 1-6, GST-SBP tag (UNK, Homo sapiens, UniProt Q9C0B0, residues 30-357)
All sequences stand within: GGGAGUUCUACAGUCCGACGAUC … CAACAGAGGAUUGAGCAUCA
Target sequence (chain): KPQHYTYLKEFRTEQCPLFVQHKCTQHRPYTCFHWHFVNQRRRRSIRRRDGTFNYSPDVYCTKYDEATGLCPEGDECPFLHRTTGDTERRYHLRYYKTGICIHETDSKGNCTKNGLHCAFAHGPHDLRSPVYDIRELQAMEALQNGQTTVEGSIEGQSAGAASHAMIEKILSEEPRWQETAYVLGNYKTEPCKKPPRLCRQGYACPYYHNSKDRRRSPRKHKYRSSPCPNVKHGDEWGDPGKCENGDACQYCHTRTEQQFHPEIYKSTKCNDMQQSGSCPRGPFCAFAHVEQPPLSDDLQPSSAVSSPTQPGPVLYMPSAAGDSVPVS
`CAGAACUGUGGUCCAAGUUUCCAGUCUCUGAUUGUGAAGAAGGAAUUUGUUAAAGAGAAUUCCGUUAAGCUACUGAAUCCCAGAUACAACUUGCCAUUAGACAUUCAGAAUAGAAUCUUG` gave a bound/input enrichment of 0.835 ratio.
With `AUUAGAAAUGAUACUUUCAGUGACUCUCCAGUUUGGCCCUGGAUCCCAUCUUUGUCUGAUACCGCAGCUGUAUUCUUCAACAUGGGCGUUGGUUUUGGAUCUUUGUUUCCUCUGGAGACU` the bound/input enrichment was 0.529 ratio.
`AGUACUGGCAGUCGAGGCAGCUGCGGAUCAUCAGGAAGAACUGCUGAGAAAAGUGCUCACCGUUUCAAGUCUGAUCAGGUGAAGGUCAAGCAGGAACCUGGGACUGAAGAAGAGAUAUGC` gave a bound/input enrichment of 0.103 ratio.
The bound/input enrichment of `CUGUCACACUCCAAGGGCCACCAGAAGCGCAAGGCCCUCAAGACGACAGUCAUCCUCAUCCCCGCUUUCUUUGCCUGCUGGCUGCCAUAUUAUGUGGGGAUCAGCAUCGACUCCUUCAUC` is reported as 0.0682 ratio.
`CCGUCUAUAUAUGUGUGAAUAAUGUAAGUAUUUUACAGCAUGUUGAUUUUUAAAUUAACGCCGUAAAUGCUGUAAAAUAGAUUUAUAUUCAGUUAACCGCUUUCAGUUGAUUUUUUGAAA` has a bound/input enrichment of 0.419 ratio.
`AUGGCAUAAAAUGUACCUUUGUUCUUAUUGUAUAAUAUUGAGGCUAUUACUAAUUAUUCAUACCGGUCCCAGCAACAGAUAGAAAUGCUUUAAGUUCGCUCUGGGGAAAACUGGCCUCUG` has a bound/input enrichment of 0.634 ratio.
For `UGCUUCCAAACACUGACAGGGAUCAAGUUUGUGGUCCUGGCAGACCCUAGGCAAGCUGGAACCGAUUCUCUUCUCCGAAAAAUUUAUGAAAUUUACUCAGACUUUGCCCUCAAGAAUCCA`, the bound/input enrichment was 1.32 ratio.
`CAGUGGCGUUUGGAGGAGACUCGAAACUGGAUGGCUUCUACAGGGAGCCAGGCCUCUGAUACCGACGAGAUUUUUGGAUUCUUCAACGAUGGCGAACCUCCCACCAAAAAGCCCAGGAAG` has a bound/input enrichment of 0.14 ratio.
For `UACUUCUGGAUUCCAGGAAAAAUUCUUAUAACUAAAAUCAAUAUGUUUUAAAAGUCACCAUACCGCUUCUUACUAGUUAUCUUUUAAAGACUGUGGUGGUCUUAAAAGGGAACAAAAGCU`, the bound/input enrichment was 0.874 ratio.
With `GAUAAAGAUCCCAACAAGAAGAUGAAACGAAACUUAAGGAAAAUUCUAGAUAGUAAAGCAACCGACCUUAUGAAUGCACUAAUGAGAUUAAAUCAGAUCAGGCCCGGGCUUCAGUAUAAG` the bound/input enrichment was 0.853 ratio.
The bound/input enrichment of `UUUAUGACAUGUCCCUUUAUAUUGAAUGCUGUCACAAAGAAUCUGGGAUUAUAUUAUGACAACCGAAUUCGCAUGUACAGUGAAAGAAGAAUCACUGUUCUUUACAGCCUAGUUCAAGGA` is reported as 0.211 ratio.

Set 2 — target: CCNF, cyclin fold, Cln2 fusion (human); technique: yeast growth competition, sequencing; matrix: yeast; notes: strong parent motif; reference: not given; reading: higher = stronger binding
Starting sequence: CDKN1B docking peptide (human); PSACRNLFGPVDH; partner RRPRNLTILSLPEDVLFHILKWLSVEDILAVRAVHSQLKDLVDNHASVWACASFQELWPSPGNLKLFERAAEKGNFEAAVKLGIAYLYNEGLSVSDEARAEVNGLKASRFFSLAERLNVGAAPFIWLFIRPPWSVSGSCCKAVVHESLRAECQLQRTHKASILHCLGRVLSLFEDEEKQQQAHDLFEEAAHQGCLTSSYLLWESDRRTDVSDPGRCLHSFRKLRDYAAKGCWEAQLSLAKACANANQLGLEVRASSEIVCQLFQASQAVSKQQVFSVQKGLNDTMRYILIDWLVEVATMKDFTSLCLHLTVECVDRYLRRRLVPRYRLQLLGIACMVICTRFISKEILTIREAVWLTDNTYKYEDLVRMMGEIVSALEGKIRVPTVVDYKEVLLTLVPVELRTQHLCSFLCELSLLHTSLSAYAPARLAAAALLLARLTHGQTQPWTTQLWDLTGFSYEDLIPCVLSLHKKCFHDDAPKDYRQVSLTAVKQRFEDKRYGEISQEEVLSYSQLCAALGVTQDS
`S2N`: “normalised enrichment score” 7.09.
`V11I`: “normalised enrichment score” 7.4.
For `S2L`, “normalised enrichment score” read 5.57.
Under “normalised enrichment score”, `L7F` is recorded as 1.04.
For `G9L`, “normalised enrichment score” read 4.24.
For `H13M`, “normalised enrichment score” read 6.92.
`N6V` — result for “normalised enrichment score”: 6.78.
`F8Y` — result for “normalised enrichment score”: 1.71.
For `N6S`, “normalised enrichment score” read 5.76.
Under “normalised enrichment score”, `P10L` is recorded as 7.29.
`V11L`: “normalised enrichment score” 7.33.
For `A3H`, “normalised enrichment score” read 4.27.
Under “normalised enrichment score”, `A3C` is recorded as 6.82.
Under “normalised enrichment score”, `P1V` is recorded as 7.08.
`N6M`: “normalised enrichment score” 6.03.
`R5K F8L` — result for “normalised enrichment score”: 0.133.
`L7I`: “normalised enrichment score” 5.41.
`P10R`: “normalised enrichment score” 8.09.

Set 3 — technique: DHFR PCA, deep sequencing; matrix: yeast; added: (+)-ABA 1.4 µM; reference: wild-type fitted maximum; reading: higher = stronger binding
Target: ABI1, truncated, D143A, DHFR fusion (Arabidopsis thaliana)
Notes: methotrexate growth selection, single substitutions
Starting sequence: PYL1, truncated, DHFR fusion (Arabidopsis thaliana); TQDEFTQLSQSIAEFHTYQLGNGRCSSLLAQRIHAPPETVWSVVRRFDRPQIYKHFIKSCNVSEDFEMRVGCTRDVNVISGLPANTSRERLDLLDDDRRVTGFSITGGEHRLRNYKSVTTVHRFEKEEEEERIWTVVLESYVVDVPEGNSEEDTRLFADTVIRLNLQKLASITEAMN; partner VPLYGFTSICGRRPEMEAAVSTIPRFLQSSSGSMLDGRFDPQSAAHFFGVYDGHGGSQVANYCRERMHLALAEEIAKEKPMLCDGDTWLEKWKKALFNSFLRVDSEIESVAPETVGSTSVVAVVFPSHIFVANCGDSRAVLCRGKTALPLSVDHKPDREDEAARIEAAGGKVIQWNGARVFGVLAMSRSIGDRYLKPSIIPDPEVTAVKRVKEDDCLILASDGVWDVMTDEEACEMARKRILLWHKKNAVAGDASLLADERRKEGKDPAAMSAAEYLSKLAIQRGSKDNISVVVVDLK
Under “relative binding score”, `P50S` is recorded as -0.97%.
Under “relative binding score”, `E109S` is recorded as 41.9%.
`K168I` — result for “relative binding score”: 8.23%.
Under “relative binding score”, `E14D` is recorded as 30.1%.
`K54D`: “relative binding score” -5.19%.
Under “relative binding score”, `E128Y` is recorded as 45.2%.
`V40I`: “relative binding score” -19.5%.
For `S27C`, “relative binding score” read 10.6%.
Under “relative binding score”, `T6H` is recorded as 60.2%.
`V70S` — result for “relative binding score”: 1.47%.
`R46H` — result for “relative binding score”: 3.56%.
Under “relative binding score”, `L91W` is recorded as 4.53%.
Under “relative binding score”, `T106C` is recorded as 38.5%.
`T17P` — result for “relative binding score”: -24.5%.
For `E127N`, “relative binding score” read 63.9%.
`I172M` — result for “relative binding score”: 15.5%.
`V43W`: “relative binding score” -3.07%.
`D92S`: “relative binding score” -0.434%.
`C72Y` — result for “relative binding score”: 26.3%.
For `E131M`, “relative binding score” read 62.8%.
`E174L`: “relative binding score” -5.96%.
`S150G` — result for “relative binding score”: 9.5%.
Under “relative binding score”, `V44N` is recorded as -19.6%.
For `D159F`, “relative binding score” read -30.6%.
Under “relative binding score”, `T73F` is recorded as 69.3%.

Set 4 — technique: RNA Bind-n-Seq; form: RNA; matrix: in vitro; tested at: 200 nM; notes: whole 134-nt RNA, ends assumed; added: 150 mM KCl; reference: input library; reading: higher = stronger binding
Target: Fragile X messenger ribonucleoprotein 1, C-terminal low-complexity region (Fmr1, Mus musculus, UniProt P35922)
All sequences stand within: GGGAGUUCUACAGUCCGACGAUC … UGGAAUUCUCGGGUGUCAAGG
For `GCAGGAAGUAAAAACAAAUGGAAAUCCUUCGGAUAGUGGCAGGGGUGGGGGUUGCUAAGGAAAGGGUGGGAUGGGAGUGGGUAAAGAGUU`, the log2 enrichment was 0.577.
`GCAGGAAGUAAAAACAAAUGGAAAUGCUUCGGAUAGUGGCAGGGGUUGGGGUUGCUAAGGAAAGGGUGGGAUGGGAGUGGGUAAAGAGUU` has a log2 enrichment of 0.0567.
The log2 enrichment of `UGGGAGGUGGAUUUUGCUUAUUUUUUUAGCUCAUUUCCAGGGGUGGGAAUUUUUUUUUAAUAUGUGUCAUGAAUAAAGUUGUUUUUGAAA` is reported as 0.212.
For `ACCAUGCAGGUGGGCAUCAUUGGGAAGUGGGGCAAGGGGGGGAUAGGGAGGGGGGUAACACUUUGGGAACAGGUGGUCCCAGGUCGUUUC`, the log2 enrichment was 0.577.
For `AAGUCCUGUGCUACACAUCGUAUGUACCGAAUCGGGUUUUUGGGAAAGGGAAAGGGAAAGUAUUAUGUUACGCCGUUCGGAUCUGCACUU`, the log2 enrichment was 0.297.
`UGGGAGGUGGAUUUUGUUUAUUUUUUUAGCUCAUUUCCAGGGGUGGGAAUUUUUUUUUAAUAUGUGUCAUGAAUAAAGUUAUUUUUGAAA` gave a log2 enrichment of 0.0611.
`CACAGACAACACGCACACACACAGACACAGAGGGAAGGGGUUGGGAUGGGGACAGGGUGCACAGCAGGGCGGGGUAGGACCCCAGCCCCU` gave a log2 enrichment of 1.29.
With `CCUCAAGUCCUGUGCUACACAUCGUAUGUACCGAAUCGGGAGGGAGGGGAGGAAAGUAUUAUGUUACGCCGUUCGGAUCUGCACUUCCAG` the log2 enrichment was 0.92.
With `CAAGUCCUGUGCUACACAUCGUAUGUACCGAAUCGGGCCCGGCCCGGGCCCGGGGAAAGUAUUAUGUUACGCCGUUCGGAUCUGCACUUC` the log2 enrichment was -1.06.
For `UCCUCAAGUCCUGUGCUACACAUCGUAUGUACCGAAUCGGUUUGGUGGAGGAAAGUAUUAUGUUACGCCGUUCGGAUCUGCACUUCCAGC`, the log2 enrichment was -0.409.
`AAGUCCUGUGCUACACAUCGUAUGUACCGAAUCGGGAAAAGGGAAAAGGGGAAAAGGAAAGUAUUAUGUUACGCCGUUCGGAUCUGCACU` has a log2 enrichment of -0.22.
For `GUCCUGUGCUACACAUCGUAUGUACCGAAUCGGGGAAAGGGGAGGGGAAAAAAAGGGGAAAGUAUUAUGUUACGCCGUUCGGAUCUGCAC`, the log2 enrichment was 0.205.
With `UCCUCAAGUCCUGUGCUACACAUCGUAUGUACCGAAUCGUGUGUGUGUGUGUAAAGUAUUAUGUUACGCCGUUCGGAUCUGCACUUCCAG` the log2 enrichment was 0.533.
For `AAGUCCUGUGCUACACAUCGUAUGUACCGAAUCGGUUUGGAAAAAGGUUUUUUUGGAAAGUAUUAUGUUACGCCGUUCGGAUCUGCACUU`, the log2 enrichment was -0.993.

Some of these lines once more (set 2):
`S2N`: “normalised enrichment score” 7.09.
`V11I`: “normalised enrichment score” 7.4.
For `S2L`, “normalised enrichment score” read 5.57.
Under “normalised enrichment score”, `L7F` is recorded as 1.04.
For `G9L`, “normalised enrichment score” read 4.24.
For `H13M`, “normalised enrichment score” read 6.92.
`N6V` — result for “normalised enrichment score”: 6.78.
`F8Y` — result for “normalised enrichment score”: 1.71.
For `N6S`, “normalised enrichment score” read 5.76.
Under “normalised enrichment score”, `P10L` is recorded as 7.29.
`V11L`: “normalised enrichment score” 7.33.
